{"data": "Assay results collected from several papers", "FGFR1": "Fibroblast growth factor receptor 1 (FGFR1, Homo sapiens, UniProt P11362)", "FGFR1 V561M": "Fibroblast growth factor receptor 1 (FGFR1, Homo sapiens, UniProt P11362, V561M)", "note": "Compare with care: the assays were run in different laboratories. Several values in a cell are separate wells, animals, samples, runs or records."}
{"SMILES": "Nc1nc(Nc2ccccc2)sc1C(=O)c1ccccc1", "target": "FGFR1", "assay": "enzyme activity, inhibitor", "setting": "10 µM", "endpoint": "remaining activity", "result": "39%"}
{"SMILES": "COCC12C(=O)NC3C4(C(OC)CC1O)C1CC5(O)C(OC)C(O)C(OC(C)=O)(C1C5OC(=O)c1ccccc1)C3(O)C(OC)C24 (centres unmarked)", "target": "FGFR1 V561M", "assay": "kinase activity, inhibitor, ProQinase kinase profiling", "setting": "25 µM", "scale": "relative to: control", "endpoint": "remaining activity", "result": "102% and 94%"}
{"SMILES": "Nc1ncc2c(n1)-c1c([nH]c3ccc(C4=CCOCC4)cc13)CCC2", "target": "FGFR1", "assay": "binding, competition with immobilised ligand", "setting": "1 µM", "endpoint": "remaining binding", "result": "95%"}
{"SMILES": "COc1cc(Nc2nc(C)cc(-c3cnn4nc(OC)ccc34)n2)cc(C(F)(F)F)c1", "target": "FGFR1", "assay": "inhibitor", "setting": "1 µM", "scale": "relative to: control", "endpoint": "remaining activity", "result": "98%"}
{"SMILES": "CN1CCN(Cc2ccc(-c3ccc(CO[C@H]4CCC[C@@H]4NC(=O)c4cc(-c5cnn(C)c5)cnc4N)cc3)cc2)CC1", "target": "FGFR1 V561M", "assay": "enzyme activity, inhibitor", "setting": "0.1 µM", "endpoint": "inhibition", "result": "3%"}
{"SMILES": "O=C=[N][Ru-4]123([n]4c5ccc(O)cc5c5c6c(c7cc(F)c[n+]1c7c54)C(=O)NC6=O)[S+]1CC[S+]2CC[S+]3CC1 (centres unmarked)", "target": "FGFR1", "assay": "enzyme activity", "setting": "100 nM, human enzyme, added: 10 µM ATP", "scale": "relative to: untreated", "endpoint": "remaining activity", "result": "132%"}
{"SMILES": "COc1c(OCCCN2CCOCC2)ccc2c1N=C(NC(=O)c1cnc(N)nc1)N1CCN=C21", "target": "FGFR1", "assay": "kinase activity, inhibitor", "setting": "1 µM", "scale": "relative to: untreated control", "endpoint": "remaining activity", "result": "106%"}
{"SMILES": "CCN1CCN(Cc2ccc(C(=O)Nc3ccc(C)c(NCc4cnc5[nH]ccc5c4OC)c3)cc2C(F)(F)F)CC1", "target": "FGFR1", "assay": "binding, competition with immobilised ligand", "setting": "1 µM", "endpoint": "remaining binding", "result": "0.95%"}
{"SMILES": "C=CC(=O)Nc1cccc(-c2cnc3[nH]cc(C(=O)NC(C)(C)C)c3n2)c1", "target": "FGFR1", "assay": "enzyme activity, inhibitor", "setting": "0.1 µM", "endpoint": "inhibition", "result": "23%"}
{"SMILES": "CCN1CCN(Cc2ccc(NC(=O)c3ccc(C)c(NC(=O)c4cncc(-c5cccs5)c4)c3)cc2C(F)(F)F)CC1", "target": "FGFR1", "assay": "binding, competition with immobilised ligand", "setting": "1 µM", "endpoint": "remaining binding", "result": "32%"}
{"SMILES": "Cc1cccc(-c2ccc3nc(NC(=O)C4CCCCC4)nn3c2)c1", "target": "FGFR1", "assay": "enzyme activity, Dundee kinase panel", "setting": "10 µM", "endpoint": "remaining activity", "result": "111%"}
{"SMILES": "Cc1cccc(O[C@H]2CCC[C@@H](C(C)CNCc3ccncc3)C2)c1 (relative stereo)", "target": "FGFR1", "assay": "cell-free assay", "setting": "1 µM", "endpoint": "inhibition", "result": "7%"}
{"SMILES": "COc1c(Cl)cccc1Nc1c(-c2ccncc2C#C[C@@]2(C)CCCN2C(=O)/C=C/CN(C)C)[nH]c2c1C(=O)NCC2", "target": "FGFR1", "assay": "cell-free assay, competition with immobilised ligand", "setting": "3 µM", "endpoint": "remaining binding", "result": "95%"}
{"SMILES": "C[C@H]1CN(C(=O)c2cn(-c3ccnc(N)n3)c3cc(C#CC4(O)CCCCC4)ccc23)CCN1", "target": "FGFR1", "assay": "enzyme activity, inhibitor, FRET", "setting": "1 µM", "endpoint": "inhibition", "result": "-6%"}
{"SMILES": "COc1ccc(NC(=O)Nc2ccc3c(c2)C(=O)N(C(C)CO)CC(C)C(CN(C)Cc2ccc4c(c2)OCO4)O3)cc1 (centres unmarked)", "target": "FGFR1", "assay": "kinase activity", "setting": "0.03 µM", "scale": "relative to: control", "endpoint": "remaining activity", "result": "111%"}
{"SMILES": "CN1CCN(c2ccc(Nc3ncc(Cl)c(Nc4ccccc4P(C)(C)=O)n3)cc2Br)CC1", "target": "FGFR1", "assay": "enzyme activity, inhibitor", "setting": "0.1 µM", "endpoint": "inhibition", "result": "45.7%"}
{"SMILES": "C=CC(=O)N1CCCC(n2c(=O)c3ncccc3n(Cc3ccc(Oc4ccccc4)cc3)c2=O)C1 (centres unmarked)", "target": "FGFR1", "assay": "cell-free assay, competition with immobilised ligand", "setting": "1 µM", "endpoint": "remaining binding", "result": "88%"}
{"SMILES": "C=CC(=O)N1Cc2nc(-c3cc(-c4cc(Cl)cnc4Cl)c(F)cc3F)n(-c3ccncn3)c2C1", "target": "FGFR1", "assay": "cell-free assay", "setting": "1 µM", "endpoint": "inhibition", "result": "3.3%"}
{"SMILES": "CC(C)=CC1OC(C)(C)C2C=C3C(=O)C(Cl)=CC(O)C3C3C(O)C4OC4C(=O)C132 (centres unmarked)", "target": "FGFR1", "assay": "cell-free assay, competition with immobilised ligand", "setting": "10 µM", "endpoint": "remaining binding", "result": "76%"}
{"SMILES": "NC(=O)C[C@H]1CCc2sc3ncnc(O[C@H]4CC[C@H](N5CCOCC5)CC4)c3c21", "target": "FGFR1", "assay": "enzyme activity, inhibitor", "setting": "10 µM", "endpoint": "inhibition", "result": "9%"}
{"SMILES": "O=C(Nc1ccc(Oc2ncnc3[nH]cc(-c4ccccc4)c23)c(F)c1)c1c2n(n(-c3cc(F)ccc3F)c1=O)CCCC2", "target": "FGFR1", "assay": "enzyme activity, inhibitor", "setting": "0.5 µM", "endpoint": "inhibition", "result": "-4%"}
{"SMILES": "Cc1ccc(C)c(-c2ccc3nc(NC(=O)C4CCCCC4)nn3c2)c1", "target": "FGFR1", "assay": "enzyme activity, Dundee kinase panel", "setting": "10 µM", "endpoint": "remaining activity", "result": "96%"}
{"SMILES": "C=CC(=O)N1CCc2ccc(-n3c(=O)ccc4cnc5ccc(-c6cnn(C)c6)cc5c43)cc21", "target": "FGFR1", "assay": "KINOMEscan", "setting": "1 µM", "scale": "relative to: DMSO control", "endpoint": "remaining binding", "result": "100%"}
{"note": "Repeated from above:"}
{"SMILES": "COc1ccc(NC(=O)Nc2ccc3c(c2)C(=O)N(C(C)CO)CC(C)C(CN(C)Cc2ccc4c(c2)OCO4)O3)cc1 (centres unmarked)", "target": "FGFR1", "assay": "kinase activity", "setting": "0.03 µM", "scale": "relative to: control", "endpoint": "remaining activity", "result": "111%"}
{"SMILES": "CN1CCN(c2ccc(Nc3ncc(Cl)c(Nc4ccccc4P(C)(C)=O)n3)cc2Br)CC1", "target": "FGFR1", "assay": "enzyme activity, inhibitor", "setting": "0.1 µM", "endpoint": "inhibition", "result": "45.7%"}
{"SMILES": "C=CC(=O)N1CCCC(n2c(=O)c3ncccc3n(Cc3ccc(Oc4ccccc4)cc3)c2=O)C1 (centres unmarked)", "target": "FGFR1", "assay": "cell-free assay, competition with immobilised ligand", "setting": "1 µM", "endpoint": "remaining binding", "result": "88%"}
